# Measurements pooled from the literature.
# Numbered parts are unrelated; each lists some results of a single study. Substitutions count along the parent as printed.

# Series 1
# Target: CCND2, cyclin fold, Cln2 fusion (human)
# Method: yeast growth competition, sequencing
# Medium: yeast
# Setting: weak parent motif
# Relative to: not given
# Direction: higher = stronger binding
# Starting sequence: SAMHD1 docking peptide (human); ASKSRVQLFKDDP
Change,normalised enrichment score
F9M,0.367
D12E,0.397
Q7S,-0.0308
S2R,-0.113
R5P,0.0649
R5D,0.0747
Q7E,0.0198

# Series 2
# Target: Centromere-binding protein 1, full length, His-tagged (CBF1, Saccharomyces cerevisiae, UniProt P17106, residues 1-351)
# UniProt P17106, sequence (whole entry, looked up): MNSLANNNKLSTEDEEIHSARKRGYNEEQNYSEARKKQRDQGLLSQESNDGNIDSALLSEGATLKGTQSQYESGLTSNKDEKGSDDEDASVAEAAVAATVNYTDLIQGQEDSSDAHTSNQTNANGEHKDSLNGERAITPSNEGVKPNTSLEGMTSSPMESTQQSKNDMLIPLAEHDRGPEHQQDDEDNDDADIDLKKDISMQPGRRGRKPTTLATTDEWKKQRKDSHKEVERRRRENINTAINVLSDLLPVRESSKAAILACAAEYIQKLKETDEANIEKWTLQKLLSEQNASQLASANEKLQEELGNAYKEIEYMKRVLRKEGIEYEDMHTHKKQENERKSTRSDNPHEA
# Method: competition protein-binding microarray
# Molecule type: double-stranded DNA, one strand shown
# Medium: in vitro
# Tested at: 2 µM
# Setting: whole 60-bp probe, lowest competitor level
# Added: Pho4 competitor, 0.05 µM
# Direction: higher = stronger binding
# Shared flanks, not repeated: … GTCTTGATTCGCTTGACGCTGCTG
Sequence,fluorescence intensity [a.u.]
AAAGCGGTAATTTGTCGCGTGGGTGCAGATATCTAT,97.7
CTTTCCCGATCTTGTGTCGTGGGTGTAGCACATTTG,75.4
TGTTGCTGTTCGCGTCAGCTGAGGCTGAGTATCGTT,88.4
CACTGTTGGCACCTCCACGTGTTGAATTACCAGGGC,764
ACTCCAAAATACATCCTCGTGGCAACCCAGGTTACG,90.8
ATTAAACTTTTTAGACACATGACAAAGGCCATCGGC,349
TTGATATCTGAAGTTGCTCCCAAACAAATCAGAGGA,77.4
AAAGCGGTAATTTTTCACGTGAAGTCAAATATCTAT,1230

# Series 3
# Target: CREB3L1, bZIP domain (human)
# Method: DHFR protein complementation
# Medium: yeast
# Setting: single substitutions, most at no-binding floor
# Relative to: wild-type JUN-FOS pair
# Direction: higher = stronger binding
# Starting sequence: JUN, bZIP domain (human); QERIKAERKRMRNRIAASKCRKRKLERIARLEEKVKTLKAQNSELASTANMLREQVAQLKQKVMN; partner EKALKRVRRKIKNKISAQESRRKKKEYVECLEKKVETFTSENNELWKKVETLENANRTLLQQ
Change,binding fitness
L45C,-1.44 natural log
L31H,-1.31 natural log
E44Q,-1.52 natural log
E33L,-1.51 natural log
M51A,-1.34 natural log
Q55R,-1.47 natural log
K36R,-1.37 natural log
S43E,-1.45 natural log
A57V,-1.45 natural log
A49E,-1.44 natural log
I28F,-1.53 natural log

# Other studies, line by line
Molecule,target,assay,system,setting,how to read,quantity,value
"PhoQ, residues 284 288 289 292 302 303 SACGEM","PhoP, residues 12 14 15 18 19 YHFSH (Escherichia coli, UniProt P23836)","Sort-seq, measured: YFP reporter",E. coli,"PhoQ-PhoP variant library, added: 10 µM Mg2+","relative to: high Mg2+ state, higher = stronger signaling",fold induction,10.7

# For quick reference, copied from above (series 1):
Change,normalised enrichment score
Q7S,-0.0308
S2R,-0.113
R5P,0.0649
R5D,0.0747
